Experimental data collected from several papers.
Every numbered part comes from another study and shows a few of its results, in no order. Substitutions count along the parent as printed.

Series 1
Target: CCNB3, cyclin fold, Cln2 fusion (human)
Method: yeast growth competition, sequencing
Medium: yeast
Notes: weak parent motif
Reference: not given
Reading: higher = stronger binding
Parent: RB1 docking peptide (human); PKPLKKLRFDIEG; partner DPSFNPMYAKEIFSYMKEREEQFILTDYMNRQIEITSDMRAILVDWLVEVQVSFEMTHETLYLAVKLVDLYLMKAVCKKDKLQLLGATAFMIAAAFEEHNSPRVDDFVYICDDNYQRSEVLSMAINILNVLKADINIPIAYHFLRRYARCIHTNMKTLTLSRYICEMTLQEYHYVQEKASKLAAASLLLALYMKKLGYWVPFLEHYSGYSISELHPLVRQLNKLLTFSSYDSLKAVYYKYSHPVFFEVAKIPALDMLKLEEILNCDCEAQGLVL
For `PKPRKKLRFDIEG [L4R]`, “normalised enrichment score” read 0.403.
Under “normalised enrichment score”, `PKPLIKLRFDIEG [K5I]` is recorded as 0.346.
`PQPLKKLRFDIEG [K2Q]` — result for “normalised enrichment score”: 0.189.
For `VKPLKKLRFDIEG [P1V]`, “normalised enrichment score” read -0.0765.
For `PCPLKKLRFDIEG [K2C]`, “normalised enrichment score” read 0.373.
Under “normalised enrichment score”, `PKPLKYLRFDIEG [K6Y]` is recorded as -0.327.
Under “normalised enrichment score”, `PKPLKKLRFWIEG [D10W]` is recorded as 0.0998.

Series 2
Target: RNA binding protein fox-1 homolog 2, RRM domain, GST-SBP tag (RBFOX2, Homo sapiens, UniProt O43251-10, residues 100-194)
Method: RNA Bind-n-Seq
Molecule type: RNA
Medium: in vitro
Concentration: 365 nM
Notes: natural RNA segment, single round, ends assumed
Reference: no-protein control
Reading: higher = stronger binding
Construct (chain): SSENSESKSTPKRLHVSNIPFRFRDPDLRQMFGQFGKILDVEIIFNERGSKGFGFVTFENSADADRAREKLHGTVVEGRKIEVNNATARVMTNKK
For `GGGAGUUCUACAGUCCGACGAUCACUUAAUACUAGGAGAAGACUGAAUCAUUAAUGAUGUCUCACAAAUUACUGUGUACCUAAGUGGUGUGAUGUAAAUACUGGAAACAAAAACAGCAGUUGCAUUGAUUUUGUGGAAUUCUCGGGUGCCAA`, “RBNS enrichment (R)” read 0.335.
`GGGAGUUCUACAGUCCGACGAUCAAAGCCCCCAUCAGAACUGCUGGUACUUGAAUCCUCAGAUACUUUAUAGGAGCCCUUGAAUGAAGCUGUGAAUGGAGAGGUUUUCUCUAUAAACCUAUGUGGUAGCCCCCUGGAAUUCUCGGGUGCCAA` — result for “RBNS enrichment (R)”: 0.745.
`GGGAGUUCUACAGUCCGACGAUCAAUUUGAUGCAUAACUUUUAAGUACACUUAACACUUCAGGGCAGGAUUUUACUUUUAUUUUUUAAAAAUACUAAGCAGUGAUCUUUAUUAACUAGGACCAUUUUCCUGAAUGGAAUUCUCGGGUGCCAA`: “RBNS enrichment (R)” 0.47.
`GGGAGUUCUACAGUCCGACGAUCAUACAGCUAAACCUUUCUUAUGUAUAAAGUAUGCCUAUCAUAUACAGGGAGAGGUGGGUAAUAAACUUCCUGUAAUGACAGUGUUUGGCAUUUCUUUAUGGAUGGAAUUGUGGAAUUCUCGGGUGCCAA` — result for “RBNS enrichment (R)”: 1.2.
`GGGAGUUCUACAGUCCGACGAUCAUAGAGCCUUCAGUUUGCCAUUACCCACUGUGGUCUGCUUUUCAGCCUAGCAAUUUGAGCUCUCAGCAGUGAGAAGACCCCGCCCUGCCUUCAUUAGAGCUAUCAAUACUUGGAAUUCUCGGGUGCCAA`: “RBNS enrichment (R)” 0.492.
Under “RBNS enrichment (R)”, `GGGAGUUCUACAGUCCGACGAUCCCAUGUGGGAGGCCAAGGAGGCUGCAGUGAGACUCUUCCACGGAACCAUGACGCUAGUGCAGUGACAGCCUGUGUCACGGCCGUGUUGAGGGGUCCCAGCAGAGGCCUGUUGGAAUUCUCGGGUGCCAA` is recorded as 0.415.
Under “RBNS enrichment (R)”, `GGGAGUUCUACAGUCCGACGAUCCUUAGAUUGGGUUUAUAACUAUUAGGAAUCACUGCACAGUUUAUUUGGGUUGUGUUUUGUGUCUGAGUCCCCUCCCUCAUCCCUUAGGGUCCAGAAGAGCAAUGGAGGAAUGGAAUUCUCGGGUGCCAA` is recorded as 0.435.
`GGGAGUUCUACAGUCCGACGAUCGAUUCGAAGUUUGUAUUGUAUUCAUAGUUAAAGGGAAUCGGGUACUUUGCUUGUUGAAUAAUGCACUUUAAAACAAGGAACCGUAUCAGGCCAGCAUGGUGGCUCAUGCCUGGAAUUCUCGGGUGCCAA` — result for “RBNS enrichment (R)”: 5.78.

Series 3
Target: Sal-like protein 4, full length isoform A (SALL4, Homo sapiens, UniProt Q9UJQ4, residues 1-1053)
UniProt Q9UJQ4, sequence (whole entry, looked up): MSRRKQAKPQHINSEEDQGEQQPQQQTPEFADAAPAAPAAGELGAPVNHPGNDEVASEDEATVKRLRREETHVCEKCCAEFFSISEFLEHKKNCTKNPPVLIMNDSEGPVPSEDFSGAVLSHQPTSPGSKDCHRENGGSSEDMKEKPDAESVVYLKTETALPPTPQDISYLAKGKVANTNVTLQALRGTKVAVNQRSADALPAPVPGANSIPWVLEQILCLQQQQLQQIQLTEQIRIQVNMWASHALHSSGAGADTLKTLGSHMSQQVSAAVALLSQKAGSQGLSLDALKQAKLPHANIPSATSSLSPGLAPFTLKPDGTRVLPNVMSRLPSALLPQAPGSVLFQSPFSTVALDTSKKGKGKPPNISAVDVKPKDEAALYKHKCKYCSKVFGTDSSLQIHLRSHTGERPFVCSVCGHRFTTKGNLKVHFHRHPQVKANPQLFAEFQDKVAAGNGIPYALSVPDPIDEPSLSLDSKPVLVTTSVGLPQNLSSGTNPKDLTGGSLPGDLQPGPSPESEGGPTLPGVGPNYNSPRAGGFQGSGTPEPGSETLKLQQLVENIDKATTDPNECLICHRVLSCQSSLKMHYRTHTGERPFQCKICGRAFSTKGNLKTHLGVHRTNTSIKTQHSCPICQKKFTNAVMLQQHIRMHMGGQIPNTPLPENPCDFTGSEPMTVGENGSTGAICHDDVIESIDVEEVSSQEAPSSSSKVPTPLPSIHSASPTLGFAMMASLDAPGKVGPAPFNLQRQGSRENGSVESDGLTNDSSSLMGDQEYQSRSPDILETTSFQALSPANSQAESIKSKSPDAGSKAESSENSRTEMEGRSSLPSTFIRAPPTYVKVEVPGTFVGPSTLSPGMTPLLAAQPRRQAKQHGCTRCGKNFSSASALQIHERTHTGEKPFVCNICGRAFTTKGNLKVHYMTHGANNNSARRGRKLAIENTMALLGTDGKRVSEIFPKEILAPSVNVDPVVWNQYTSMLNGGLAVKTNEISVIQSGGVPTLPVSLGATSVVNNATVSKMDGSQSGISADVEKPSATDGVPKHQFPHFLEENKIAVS
Method: universal PBM
Molecule type: double-stranded DNA, one strand shown
Medium: in vitro
Concentration: 600 nM
Notes: 8-mer, flanks averaged, mean of replicates
Reading: higher = stronger binding
With `AAGGTGTA` the E-score was 0.0482.
The E-score of `CAGGCTGC` is reported as -0.186.
`AAAAATGA` has an E-score of 0.393.
`CTAAGTTA` has an E-score of 0.244.
The E-score of `GAGTACCA` is reported as 0.038.
With `ATGACGCA` the E-score was 0.0824.
With `AGTGAGAG` the E-score was -0.142.
`CAGCGATC` gave an E-score of -0.117.
The E-score of `CGATTTGA` is reported as 0.0805.

Other studies, line by line
`PhoQ, residues 284 288 289 292 302 303 SVHLDV` has a fold induction of 1.96 (PhoP, residues 12 14 15 18 19 NQGLL (Escherichia coli, UniProt P23836); Sort-seq, measured: YFP reporter; E. coli; PhoQ-PhoP variant library, together with: 10 µM Mg2+; reference: high Mg2+ state, higher = stronger signaling).
